Measurements from different studies.
Protocols differ between the studies behind these lines. “And” joins repeats or separate records; there may be more than shown.
Target: 5-hydroxytryptamine receptor 3A (HTR3A, Homo sapiens, UniProt P46098)

SMILES = CN[C@@H]1[C@H](O)[C@H](NC)[C@H]2O[C@]3(O)[C@H](O[C@@H]2[C@H]1O)O[C@H](C)C[C@H]3NC(=O)Cc1ccc(Cl)cn1; test = ligand displacement, radioligand; conditions = 10 µM; endpoint = inhibition; value = -2%
SMILES = CCN(CC)CCOc1ccc(-c2nnn(Cc3ccc(OC)cc3)c2N)cc1; test = radioligand binding; system = HEK293; conditions = 10 µM, safety profiling; endpoint = inhibition; value = 10.9%
SMILES = C[C@H](NCc1ccc(-c2ccc(C(F)(F)F)cc2)cc1)C(N)=O; test = radioligand binding, SafetyScreen panel; conditions = 1 µM, with: 0.69 nM [3H]GR-65630; endpoint = inhibition; value = 11%
SMILES = N[C@H](C(=O)N1CCCC1)C1CCN(c2nccc3c(-c4ncc(Cl)cc4Cl)cccc23)CC1; test = ligand displacement, radioligand; conditions = 10 µM; endpoint = inhibition; value = -3%
SMILES = CCOC(=O)[C@](CC)(CCCSCCOCCOCCNC(=O)c1ccc(-c2c3ccc(=N)c(S(=O)(=O)O)c-3oc3c(S(=O)(=O)O)c(N)ccc23)c(C(=O)O)c1)NC(=O)c1ccc(C2CC2)c(Cc2ccc(F)cc2)n1; test = ligand displacement, radioligand; conditions = 10 µM; endpoint = inhibition; value = 6%
SMILES = COc1ccc(F)cc1S(=O)(=O)Nc1cnc2c(c1)C(=O)NCCO2; test = ligand displacement, radioligand; conditions = 10 µM; endpoint = inhibition; value = 5%
SMILES = CCc1nnc(-c2c(OC)cc(-c3cnc4cc(-c5cnn(C)c5)ccn34)cc2OC)o1; test = antagonist radioligand, radioligand binding; conditions = 10 µM, SafetyScreen44 5-HT3 mean; how to read = lower = stronger displacement; endpoint = remaining binding; value = 114%
SMILES = O=C(O)c1ccc(-c2nc(-c3ccccc3Cl)c3sccn23)cc1; test = radioligand binding, safety screen panel; conditions = 10 µM; how to read = reference: control; endpoint = specific binding; value = 96.4% and 98.3%
SMILES = CS(C)(=O)=Nc1ccc(-c2ccc(-c3nc4cc(O[C@@H]5CO[C@H]6[C@@H]5OC[C@H]6O)[nH]c4cc3F)cc2)cc1; test = ligand displacement, radioligand; conditions = 10 µM; endpoint = inhibition; value = 1%
SMILES = O=C1c2ccccc2CCCN1CCCCN1CCN(c2cccc(Cl)c2Cl)CC1; test = radioligand binding; conditions = concentration not given, with: [3H]GR65630; endpoint = inhibition; value = 95.7%
SMILES = Cc1sc2c(c1C)C(c1ccc(Cl)cc1)=NC(CC(=O)OC(C)(C)C)c1nnc(C)n1-2 (stereo not shown); test = ligand displacement, radioligand; conditions = 1 µM; endpoint = inhibition; value = -6%
SMILES = COc1ccccc1N1CCN(CCCCN2CCCc3ccccc3C2=O)CC1; test = radioligand binding; conditions = concentration not given, with: [3H]GR65630; endpoint = inhibition; value = 18.2%
SMILES = C/C(=N\OCCCN1CCCCC1)c1ccc(C(F)(F)F)cc1; test = calcium influx, agonist, FLIPR; conditions = 10 µM; endpoint = activation; value = 0.11%

Some of these lines once more:
SMILES = N[C@H](C(=O)N1CCCC1)C1CCN(c2nccc3c(-c4ncc(Cl)cc4Cl)cccc23)CC1; test = ligand displacement, radioligand; conditions = 10 µM; endpoint = inhibition; value = -3%
SMILES = CCOC(=O)[C@](CC)(CCCSCCOCCOCCNC(=O)c1ccc(-c2c3ccc(=N)c(S(=O)(=O)O)c-3oc3c(S(=O)(=O)O)c(N)ccc23)c(C(=O)O)c1)NC(=O)c1ccc(C2CC2)c(Cc2ccc(F)cc2)n1; test = ligand displacement, radioligand; conditions = 10 µM; endpoint = inhibition; value = 6%
